Results gathered from unrelated publications.
A part holds a random share of what one study measured.

Sample 1 — technique: RNA Bind-n-Seq; form: RNA; matrix: in vitro; concentration: 1 µM; setting: whole 134-nt RNA, ends assumed; together with: 150 mM KCl; relative to: input library; direction: higher = stronger binding
Target: Ras GTPase-activating protein-binding protein 1, RRM domain (G3BP1, Homo sapiens, UniProt Q13283)
Chain of UniProt Q13283 (whole entry, looked up): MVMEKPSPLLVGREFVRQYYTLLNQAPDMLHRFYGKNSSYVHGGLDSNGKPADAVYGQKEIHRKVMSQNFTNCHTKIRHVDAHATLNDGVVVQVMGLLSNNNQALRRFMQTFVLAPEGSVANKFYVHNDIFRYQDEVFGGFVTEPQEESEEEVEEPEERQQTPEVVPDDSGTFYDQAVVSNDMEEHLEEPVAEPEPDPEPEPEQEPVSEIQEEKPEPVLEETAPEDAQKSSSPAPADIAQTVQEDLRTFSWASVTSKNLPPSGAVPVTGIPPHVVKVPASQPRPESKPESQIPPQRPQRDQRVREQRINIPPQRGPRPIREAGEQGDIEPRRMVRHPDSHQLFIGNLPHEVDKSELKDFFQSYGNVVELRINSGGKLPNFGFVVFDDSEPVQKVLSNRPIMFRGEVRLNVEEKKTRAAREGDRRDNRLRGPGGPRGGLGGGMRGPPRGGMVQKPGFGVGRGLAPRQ
Shared flanks, not repeated: GGGAGUUCUACAGUCCGACGAUC … UGGAAUUCUCGGGUGUCAAGG
Sequence	log2 enrichment
AGUCCUGUGCUACACAUCGUAUGUACCGAAUCAAACCCAAACCCAAACCCCCCCAAAAAAGUAUUAUGUUACGCCGUUCGGAUCUGCACU	-0.191
UCAAGUCCUGUGCUACACAUCGUAUGUACCGAAUCGGGGUUUGGUUUGGUUUGGGAAAGUAUUAUGUUACGCCGUUCGGAUCUGCACUUC	-0.311
UUUUUGAAUCAAUUUUUAAAACAUGCCAUUGUGUUUCAGGCUCGCGGGAUUGAUGUGCAACAAGUGUCUUUGGUUAUAAAUUAUGAUCUA	-0.17
CAAGUCCUGUGCUACACAUCGUAUGUACCGAAUCGGGUUUGGUUUGGGGUUUGGGAAAGUAUUAUGUUACGCCGUUCGGAUCUGCACUUC	0.128
CCUGUGCUACACAUCGUAUGUACCGAAUCGGGAAAAAAGGGGAAAAAAGGGGAAAAAAGGAAAGUAUUAUGUUACGCCGUUCGGAUCUGC	-0.0302

Sample 2 — technique: universal PBM; form: double-stranded DNA, one strand shown; matrix: in vitro; concentration: not given; direction: higher = stronger binding
Target: Sal-like protein 4, full length isoform B (SALL4, Homo sapiens, UniProt Q9UJQ4-2, residues 1-616)
Setting: 8-mer, flanks averaged, mean of replicates
Sequence	E-score
GCAGCTCA	-0.148
CCGATGCG	-0.294
ATGACTCC	-0.0419
GTAGTGCA	0.074

Sample 3 — technique: protein binding microarray; form: double-stranded DNA, one strand shown; matrix: in vitro; concentration: not given; relative to: not given; direction: higher = stronger binding
Target: Histone acetyltransferase KAT6A, both winged helices, GST fusion (KAT6A, Homo sapiens, UniProt Q92794, residues 1-181)
Setting: 8-mer, flanks averaged, mean of 2 arrays, mostly near background
Construct (chain): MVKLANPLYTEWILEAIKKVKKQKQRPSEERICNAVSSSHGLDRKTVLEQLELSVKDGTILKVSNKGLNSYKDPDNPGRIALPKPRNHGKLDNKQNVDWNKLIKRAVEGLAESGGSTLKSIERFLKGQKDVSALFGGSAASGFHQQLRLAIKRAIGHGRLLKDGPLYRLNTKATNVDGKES
Sequence	E-score
TACCACAA	-0.177
GATGTCAA	-0.0173
AACTTTTA	-0.0097
ACCATGCA	-0.0656
ACCTTATG	-0.128

Other studies, line by line
Substance	target	assay	test system	conditions	scale	endpoint	value
PhoQ, residues 284 288 289 292 302 303 SCEHLI	PhoP, residues 12 14 15 18 19 GQALL (Escherichia coli, UniProt P23836)	Sort-seq, item: YFP reporter	E. coli	PhoQ-PhoP variant library, together with: 10 µM Mg2+	relative to: high Mg2+ state, higher = stronger signaling	fold induction	12.3

Some of these lines once more (sample 3):
Sequence	E-score
TACCACAA	-0.177
